# Measured values collected from several papers.
# Values joined by “and” are separate records of one study, mostly repeats; a detail may differ. ± marks the error that the study gave.
# BCHE: Cholinesterase (BCHE, Homo sapiens, UniProt P06276)
# Sequence of UniProt P06276 (whole entry, looked up): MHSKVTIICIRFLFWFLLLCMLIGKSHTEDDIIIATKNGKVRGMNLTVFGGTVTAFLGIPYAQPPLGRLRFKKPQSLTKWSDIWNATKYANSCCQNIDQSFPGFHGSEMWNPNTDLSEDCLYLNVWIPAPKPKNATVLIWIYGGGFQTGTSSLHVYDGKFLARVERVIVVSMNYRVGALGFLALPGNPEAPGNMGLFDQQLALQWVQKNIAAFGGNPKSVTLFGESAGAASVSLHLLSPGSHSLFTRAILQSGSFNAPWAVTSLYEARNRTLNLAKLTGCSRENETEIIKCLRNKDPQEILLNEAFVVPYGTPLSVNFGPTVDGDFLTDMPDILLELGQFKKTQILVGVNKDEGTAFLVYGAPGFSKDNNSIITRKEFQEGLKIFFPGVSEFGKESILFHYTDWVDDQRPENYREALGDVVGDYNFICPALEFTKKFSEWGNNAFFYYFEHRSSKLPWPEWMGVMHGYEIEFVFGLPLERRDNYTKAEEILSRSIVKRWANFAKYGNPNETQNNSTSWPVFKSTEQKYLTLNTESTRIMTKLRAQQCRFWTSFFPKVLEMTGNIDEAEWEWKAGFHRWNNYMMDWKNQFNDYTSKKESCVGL
# Sequence of UniProt P40926 (whole entry, looked up): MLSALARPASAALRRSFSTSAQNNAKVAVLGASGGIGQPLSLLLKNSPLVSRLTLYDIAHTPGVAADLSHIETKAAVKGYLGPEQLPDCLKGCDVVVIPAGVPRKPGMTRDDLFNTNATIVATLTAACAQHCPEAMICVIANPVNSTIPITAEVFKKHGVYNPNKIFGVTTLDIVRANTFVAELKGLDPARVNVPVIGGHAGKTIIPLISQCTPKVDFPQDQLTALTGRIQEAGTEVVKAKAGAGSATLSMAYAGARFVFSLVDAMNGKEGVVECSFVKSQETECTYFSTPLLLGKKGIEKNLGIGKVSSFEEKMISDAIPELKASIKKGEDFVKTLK
Structure (SMILES),tested on,assay,system,setting,how to read,measurement,value
C[C@H]1CN(c2n[nH]c3nc(N[C@H]4CC[C@H](NS(=O)(=O)CCC(F)(F)F)CC4)ncc23)CCO1,"MDH2 (Homo sapiens, UniProt P40926)","inhibitor, Kinobeads competition profiling",,0.8 µM,baseline: vehicle,relative abundance,1.15
Cc1cc(C)nc(Nc2ccccc2)n1,Botrytis cinerea,"fungal growth, inhibitor",B05.10 wild type,168 h,,EC50,250 ± 4.4 nM
O=C(O)c1nn(Cc2ccc(Cl)cc2Cl)c2ccccc12,Human coronavirus OC43,virus-induced cell killing,MRC-5,,,Emax,18.4%
Cc1nnc(NN)c2c1[nH]c1ccccc12,"Gag-Pol polyprotein, integrase (gag-pol, Human immunodeficiency virus 1, UniProt P12497)","strand transfer activity, inhibitor",,wild-type integrase,,IC50,> 100000 nM
O=C(O)c1nccnc1NC(=O)c1cccc2ccccc12,Mycobacterium bovis,,BCG ATCC 35734,120 h,,MIC50,200 µM
O=C(Nc1ccccc1-c1ccc(Cl)cc1)c1cccnc1Cl,Botrytis cinerea,"fungal growth, inhibitor",B05.10 wild type,168 h,,EC50,327 ± 173 nM
CS(=O)(=O)Nc1ncn(-c2cc(F)c(COc3ccc(OS(=O)(=O)F)cc3)c(F)c2)n1,Mycobacterium tuberculosis,MABA,H37Rv,,,MIC,0.031 µM
CC(C)C[C@@H]1NC(=O)[C@H](CC(C)C)NC(=O)[C@H](Cc2c[nH]c3ccccc23)NC(=O)[C@H](CO)NC(=O)[C@H](Cc2c[nH]c3ccccc23)NC(=O)[C@@H]2CCCN2C(=O)[C@H](CC(C)C)NC(=O)[C@H](Cc2c[nH]cn2)NC(=O)[C@@H]2CCCN2C(=O)[C@H](CC(N)=O)NC(=O)[C@H](C)NC(=O)[C@H](Cc2ccc(O)cc2)NC(=O)[C@H](CS)NC(=O)[C@H](CCCCNC(=O)CN2CCN(CC(=O)O)CCN(CC(=O)O)CCN(CC(=O)O)CC2)NC1=O [lutetium-177 labelled],,,"Balb/c mouse, female, 4T1 tumour, heart","intravenous, 3.7 MBq, 24 h",,tissue uptake,0.02 %ID
NC12CC3CC(CC(C3)C1)C2,influenza A virus H3N2,"viral cytopathic effect, MTS",MDCK,,,EC50,400 nM
O[C@@H]1[C@H](O)[C@@H]2C[C@@H]2[C@H]1n1cnc2c(NC(C3CC3)C3CC3)nc(Cl)nc21,respiratory syncytial virus,viral replication,"MA104, A2",,,EC50,32000 nM
O=C(O)C[C@H](NC(=O)[C@H](CC(=O)O)NC(=O)[C@H](CC(=O)O)NC(=O)[C@H](CC(=O)O)NC(=O)[C@H](CC(=O)O)NC(=O)[C@H](CC(=O)O)NC(=O)[C@H](CC(=O)O)NC(=O)[C@H](CC(=O)O)NC(=O)[C@H](CC(=O)O)NC(=O)[C@H](CC(=O)O)NC(=O)[C@H](CC(=O)O)NC(=O)[C@H](CCCCNC(=O)c1ccc(C(=O)NCCOCCOB2BBBBBB3BBBB3B2)cc1)NC(=O)CN1CCN(CC(=O)O)CCN(CC(=O)O)CCN(CC(=O)O)CC1)C(=O)O [gallium-67 labelled],,,"ddY male mice, spleen","intravenous, 37 kBq, 1 h",,tissue uptake,0.19 %ID/g
CO[C@H]1/C=C/O[C@@]2(C)Oc3c(C)c(O)c4c(c3C2=O)C2=NC3(CCN(CCn5c([N+](=O)[O-])cnc5C)CC3)NC2=C(NC(=O)/C(C)=C\C=C\[C@H](C)[C@H](O)[C@@H](C)[C@@H](O)[C@@H](C)[C@H](OC(C)=O)[C@@H]1C)C4=O,Clostridioides difficile,agar dilution,fluoroquinolone-resistant gyrA D71Y T82A,,,MIC,≤ 2 ng/mL
CO/N=C(/C(=O)OC)c1ccccc1CO/N=C(\C)c1cccc(C(F)(F)F)c1,Botrytis cinerea,"fungal growth, inhibitor",B05.10 wild type,168 h,,EC50,6.9 ± 2.1 nM
O=C(NCCN1CCC2(CC1)C(=O)NCN2c1cccc(F)c1)c1ccc(F)c(F)c1,BCHE,inhibitor,,with Triton,,IC50,2700 ± 1940 nM
CC[C@H](C)[C@H](NC(=O)[C@H](CCCCN)NC(=O)[C@@H](NC(=O)[C@@H](NC(=O)[C@H](CC(C)C)NC(=O)[C@H](CCCNC(=N)N)NC(=O)[C@@H](NC(=O)[C@H](CC(C)C)NC(=O)[C@H](CCCNC(=N)N)NC(=O)CNC(=O)[C@H](Cc1ccccc1)NC(=O)[C@@H](N)CCCNC(=N)N)[C@@H](C)CC)[C@@H](C)CC)C(C)C)C(=O)N[C@@H](C)C(=O)N[C@@H](CCCNC(=N)N)C(=O)N[C@@H](CCCNC(=N)N)C(=O)N[C@@H](C)C(=O)N[C@@H](Cc1c[nH]cn1)C(=O)N[C@@H](CCCNC(=N)N)C(=O)N[C@@H](C)C(=O)N[C@@H](CCCNC(=N)N)C(=O)N[C@@H](CO)C(=O)N[C@@H](C)C(=O)N[C@H](C(=O)N[C@@H](CCCCN)C(=O)N[C@@H](C)C(=O)N[C@@H](C)C(=O)N[C@@H](CO)C(=O)N[C@@H](CC(N)=O)C(=O)N[C@H](C(=O)N[C@@H](C)C(=O)N[C@@H](CCC(=O)O)C(=O)N[C@@H](CC(C)C)C(=O)N[C@@H](C)C(=O)N[C@@H](Cc1c[nH]cn1)C(=O)NCC(=O)N[C@@H](CCC(=O)O)C(=O)O)C(C)C)C(C)C,Cryptococcus neoformans,resazurin broth microdilution,,"36 h, 35 °C",,MIC,≤ 0.062 µM
C[C@]12N[C@H](Cc3ccccc31)c1ccccc12,Plasmodium falciparum,,W2,,,IC50,3980 nM
O[C@@](Cc1ncc(CC2(C(F)(F)F)CC2)[nH]1)(c1ccc(-n2cccn2)cc1)C(F)(F)F,BCHE,inhibitor,,with Triton,,IC50,14000 ± 5500 nM
CCOC(=O)C1=C[C@@H](OC(CC)CC)[C@H](NC(C)=O)[C@@H](N)C1,influenza A virus H3N2,,"rat, plasma of treated rats",30 mg/kg,baseline: water-treated rats,plaque reduction,65.7%
CC(N)C12CC3CC(CC(C3)C1)C2 (centres unmarked),influenza A virus H3N2,"viral cytopathic effect, MTS",MDCK,,,EC50,200 nM
COc1cc(C[C@@H](C)N)c(OC)cc1I,Plasmodium falciparum,,W2,,,IC50,3160 nM
OC(Cn1cncn1)(Cn1cncn1)c1ccc(F)cc1F,Saccharomyces cerevisiae,cell growth,"Pdr5 deleted, Cdr1 overexpressed",2^6.129 µg/mL,,OD600,0.192 and 0.232 and 0.126
CC1(C(=O)Nc2ccc(O)c(Cl)c2Cl)CCCCC1,Botrytis cinerea,"fungal growth, inhibitor",B05.10 wild type,168 h,,EC50,46.6 ± 23.4 nM
Nc1ccn(C[C@@H](CO)OCP(=O)(O)O)c(=O)n1,Fowlpox virus,viral infection,CEF,100 µM,baseline: untreated,infection,67.5% and 52.9% and 47.8%

# A few entries again:
Structure (SMILES),tested on,assay,system,setting,how to read,measurement,value
O=C(Nc1ccccc1-c1ccc(Cl)cc1)c1cccnc1Cl,Botrytis cinerea,"fungal growth, inhibitor",B05.10 wild type,168 h,,EC50,327 ± 173 nM
Cc1cc(C)nc(Nc2ccccc2)n1,Botrytis cinerea,"fungal growth, inhibitor",B05.10 wild type,168 h,,EC50,250 ± 4.4 nM
OC(Cn1cncn1)(Cn1cncn1)c1ccc(F)cc1F,Saccharomyces cerevisiae,cell growth,"Pdr5 deleted, Cdr1 overexpressed",2^6.129 µg/mL,,OD600,0.192 and 0.232 and 0.126
O=C(O)c1nccnc1NC(=O)c1cccc2ccccc12,Mycobacterium bovis,,BCG ATCC 35734,120 h,,MIC50,200 µM
